Measurements collected from several papers.
Compare with care: the assays were run in different laboratories. ± gives the spread as reported. ≈ marks a conversion by molar mass, not a printed value.

SMILES	test	test system	setting	how to read	measurement	value
CCn1c(=O)n(CCO)c(=O)c2c1nc(/C=C/c1ccc(OC)c(OC)c1)n2C		healthy humans, plasma	oral, 40 mg, with: rifampin 600 mg/day		metabolite to parent AUClast ratio	0.0705
CCCC[C@H](NC(=O)CNC(=O)CNC(=O)CN1CCN(CC(=O)O)CCN(CC(=O)O)CCN(CC(=O)O)CC1)C(=O)N[C@H]1CC(=O)NCCCC[C@@H](C(N)=O)NC(=O)[C@H](Cc2c[nH]c3ccccc23)NC(=O)[C@H](CCCNC(=N)N)NC(=O)[C@@H](Cc2ccccc2)NC(=O)[C@H](Cc2c[nH]cn2)NC1=O [gallium-67 labelled]		C57 mice, female, B16/F1 melanoma, urine	intravenous, 0.037 MBq, 4 h		urinary excretion	87.8 ± 1.44%
Cc1cc(O)c2c(c1)C(=O)c1cc(O)cc(O)c1C2=O.Cc1cc(O)c2c(c1)C(=O)c1cc(O)cc(O)c1C2=O.Cc1nc(C)c(C)nc1C	powder dissolution	900 mL medium	equivalent to 60 mg emodin, pH 7.0, 37 °C, 100 rpm		cumulative dissolution	~370 µg
O=C([O-])CN1CCN(CC(=O)[O-])CCN(CC(=O)NCCc2ccc3c(c2)C2C=CCC2C(c2cc4c(cc2Br)OCO4)N3)CCN(CC(=O)[O-])CC1.[111In+3] (stereo not shown)		mouse, Hec50 endometrial tumour, adrenals	2 h post injection		tissue uptake	1.33 ± 0.08 %ID/g
O=c1c2ccccc2[se]n1CCCCCCn1[se]c2ccccc2c1=O		20% Soluplus in water	24 h, 25 °C, 200 mg/mL		solubility	883 ± 25 µg/mL (≈ 1850 µM)
C#CCOc1ccc(/C=C2\SC(=O)N(CC(=O)NCc3ccccc3)C2=O)cc1	inverse Kirkwood-Buff integrals	binary solvent mixture	298.15 K, mole fraction x1 0.35		Kirkwood-Buff integral G1,3	-266 cm³/mol
CN(O)C(=O)CCC(=O)NCCCN(CCCCN(CCCNC(=O)CCC(=O)N(C)O)C(=O)CCC(=O)N(C)O)C(=O)CCC(=O)N(C)O.[89Zr]		mouse, kidney	1 h		tracer uptake	6.93 %ID/g
Cc1cc(C(=O)N[C@@H](CO)CC(C)C)ccc1CO	LC-MS	human liver microsomes	10 µM of parent drug, 60 min, pH 7.4, with: NADPH	reference: parent drug at time zero	metabolite peak area	0.8%
COc1cc(F)ccc1-c1ncnc(Nc2cccc(C[S@@](C)(=N)=O)c2)n1		male Wistar rat, plasma	oral		oral bioavailability	53%
CC(C)(Sc1ccncc1-c1ccc(C#N)c2ccccc12)C(=O)OC1OC(C(=O)O)C(O)C(O)C1O (stereo not shown)		human, urine	oral, 15 mg, 72 h, severe renal impairment		renal clearance	19.6 mL/min
CCCC[C@H](NC(C)=O)C(=O)N[C@H]1CC(=O)NCCCC[C@@H](C(=O)N[C@@H](C(=O)N2CCC[C@@H]2C(N)=O)C(C)C)NC(=O)[C@H](Cc2c[nH]c3ccccc23)NC(=O)[C@H](CCCN=C(N)N)NC(=O)[C@@H](Cc2ccc3ccccc3c2)NC(=O)[C@@H]2CCCN2C1=O		healthy dogs, plasma	subcutaneous, 2.25 mg/kg per day, day 28, 30 min post-dose, median		plasma histamine	20.8 ng/mL
C=C(c1ccc(C(=O)O)c(F)c1)c1cc2c(cc1C)C(C)(C)C=CC2(C)C		rat, Sprague-Dawley, male, serum	oral, 100 mg/kg, 24 h		triglycerides	1590 ± 821 ng/dL
CCCC[C@H](NC(=O)CN1CCC(NC(=O)CN2CCN(CC(=O)O)CCN(CC(=O)O)CCN(CC(=O)O)CC2)CC1)C(=O)N[C@H]1CC(=O)NCCCC[C@@H](C(N)=O)NC(=O)[C@H](Cc2c[nH]c3ccccc23)NC(=O)[C@H](CCCNC(=N)N)NC(=O)[C@@H](Cc2ccccc2)NC(=O)[C@H](Cc2c[nH]cn2)NC1=O [gallium-68 labelled]		male C57BL/6J mice, B16-F10 tumours, tumour, bone	intravenous, 1 h, blocking study, with: 100 µg non-radioactive Ga-peptide	reference: tumour over bone	uptake ratio	2.4 ± 1
CC(C)CCCC(C)CCCC(C)CCO[C@@H]1O[C@H](CO)[C@@H](O[C@H]2O[C@H](CO)[C@@H](O)[C@H](O)[C@H]2O)[C@H](O)[C@H]1O (stereo partly shown)	dynamic surface tension		0.0036 mmol/L		characteristic time t*	335 s
CN[C@@H](CCOc1cccc2ccccc12)c1ccccc1		healthy male humans, plasma	oral, 60 mg of dapoxetine		median Tmax	2 h
O=C([O-])CN1CCN(CC(=O)[O-])CCN(CC(=O)[O-])CCN(CC(=O)[O-])CC1.[Fe+3]	metal exchange with Zn2+, UV/Vis		100 µM metal chelate, pH 7.4, 37 °C, with: 100 µM ZnCl2		second-order rate constant	0.0517 ± 0.00167 M⁻¹ s⁻¹
Nc1ncnc(NCC(CCO)CCNC(=O)C(O)CO)c1-c1ccc(Oc2ccccc2)cc1 (stereo not shown)		male humans, faeces	oral, 75 mg, single metabolite	reference: dose	metabolite excreted in faeces	1.31 to 2.96%
Oc1ccc2ccccc2c1/N=N/c1ccccc1		extracted rat blood QC samples	5.0 µg/L, 2 h, room temperature, short-term stability		measured concentration	4.94 µg/L
O=C([O-])CN1CCN(CC(=O)[O-])CCN(CC(=O)NCC2CCC(C(=O)NC(Cc3ccc4ccccc4c3)C(=O)NCCCCC(NC(=O)NC(CCC(=O)O)C(=O)O)C(=O)O)CC2)CCN(CC(=O)[O-])CC1.[44Sc+3] (stereo not shown)	transchelation stability		0.5 h, 37 °C, with: DTPA 10 mM		intact complex	96.7 ± 1.2%
CC(C)[C@H](NC(=O)CNC(=O)[C@H](CCC(N)=O)NC(=O)[C@H](C)N)C(=O)O	LC-MS/MS	human, male, plasma	intravenous, 20 mg/kg three times daily, day 2, first dose, 10 min infusion, geometric mean		Cmax	3500 ng/mL
C=CC(=O)Nc1cc(Nc2nccc(-c3c[nH]c4ccccc34)n2)c(OC)cc1N(C)CCN(C)C	UHPLC-MS/MS	human, finger-prick dried blood spot	oral, 80 mg daily		steady-state trough concentration	19 ng/mL
NCC(=O)N1CCC[C@H]1C(=O)N1C[C@H](O)C[C@H]1C(=O)O	potentiometric titration		37 °C, MAH-1 complex, with: Fe(III)		log beta	12.9

SMILES	test	test system	setting	how to read	measurement	value
O=S(=O)(O)c1cc(O)c(O)c(S(=O)(=O)O)c1	rotating disk electrode voltammetry	1 M H2SO4	2 mM, reduced form		diffusion coefficient	4.88e-06 cm²/s
CCCC[C@H](NC(=O)[C@H](CC(C)C)N(C)C(=O)CNC(=O)[C@@H](NC(=O)[C@H](Cc1ccccc1)NC(=O)[C@H](CCCCN)NC(=O)[C@@H](N)CC(=O)O)C(C)C)C(N)=O		Göttingen minipig, plasma	subcutaneous, 100 µg/kg		AUC(0-t)	28 ng·h/mL
CCCC[C@H](NC(=O)CNC(=O)CNC(=O)CN1CCN(CC(=O)O)CCN(CC(=O)O)CCN(CC(=O)O)CC1)C(=O)N[C@H]1CC(=O)NCCCC[C@@H](C(N)=O)NC(=O)[C@H](Cc2c[nH]c3ccccc23)NC(=O)[C@H](CCCNC(=N)N)NC(=O)[C@@H](Cc2ccccc2)NC(=O)[C@H](Cc2c[nH]cn2)NC1=O [copper-64 labelled]		female C57 mouse, B16/F1 melanoma	intravenous, 0.037 MBq, 24 h	reference: tumour over muscle	uptake ratio	17.5
CC(C)[C@H](NC(=O)CNC(=O)[C@H](CCC(N)=O)NC(=O)[C@H](C)N)C(=O)O		healthy volunteers, LPS endotoxaemia, plasma	intravenous, 15 mg/kg/h, 2 h infusion, geometric mean, with: LPS 2 ng/kg		AUC(0-t)	2670 ng·h/mL
CCc1nc(-c2ccc3c(c2)C(O)C[C@H]3NC(=O)c2cnn(C)c2)no1 (stereo partly shown)		human, pooled urine	oral, 20 mg	reference: dose	radioactive dose excreted in urine	3.38%
COC(=O)/C=C/C(=O)c1ccc(OC)cc1	LC-MS/MS	rat plasma	2.5 ng/mL, 12 h, room temperature, short-term storage		recovery	101 ± 3.47%
COc1ccc(Nc2nc(Nc3ccc(OCCOCC[18F])cc3)ncc2Br)cc1		ICR mice, S180 tumour	intravenous, 370 kBq, 30 min	reference: tumour over bone	uptake ratio	1.55
Oc1c(Br)cc(Br)c2nc3c(C(F)(F)F)cc(C(F)(F)F)cc3nc12		human red blood cells	200 µM, 1 h, pH 7.2, 37 °C		hemolysis	7.8%
O=C(N[c-]1cccc1)OCc1ccc(F)cc1.[Fe+2].c1cc[cH-]c1	cyclic and differential pulse voltammetry	acetonitrile	23 °C	reference: ferrocene/ferrocenium	E1/2	-76 mV
CC(C)c1cnc(-c2cc(Cl)ccc2F)cc1Nc1ccncc1C(=O)NC(CO)CO	monotherapy, measured: nausea	human patients	oral, dose not given, grade 4, phase I A		patients with treatment-related adverse event	0%
Cn1c(=O)oc2ccc(-c3ccc(CC(C#N)NC(=O)C4CNCCCO4)c(F)c3)cc21 (stereo not shown)	measured: macule	human	60 mg single dose, fasted		subjects with TEAE	0%
CC(C)C[C@@H](NC(=O)[C@H](NC(=O)[C@H]1CCCN1)[C@H](C)O)C(=O)N[C@H](Cc1c[nH]cn1)C(=O)N[C@@H](C(=O)N[C@H](Cc1c[nH]cn1)C(=O)N[C@H](CC(N)=O)C(=O)N[C@H](CCCNC(=N)N)C(=O)N[C@H](CCCNC(=N)N)C(=O)N[C@H](CCCNC(=N)N)C(=O)N[C@H](CCCNC(=N)N)C(=O)N[C@H](CCCNC(=N)N)C(N)=O)[C@H](C)O		beagle dog, plasma	oral, 50 mg/kg, single dose		bioavailability	5.5%
NC12CNCCNCC(NCc3ccc(CNC(=O)CCCC(=O)NCc4ccc(-c5nncnn5)cc4)cc3)(CNCCNC1)CNCCNC2.[64Cu+2]	OLINDA dosimetry	ovaries	48 h pretargeting interval, with: huA33-TCO pretargeting		mean absorbed dose	0.0374 rad/mCi
CCCCC1NC(=O)c2ccccc21 (racemic)		Wistar rat, both sexes, plasma	intravenous, 10 mg/kg		elimination half-life	1.04 ± 0.0617 h
COc1ccc2cc(-c3ccc(-c4ccc(C)cn4)nc3)oc2c1		benzene	with: quinine bisulfate reference		fluorescence quantum yield	0.75
CCCC[C@@H]1NC(=O)[C@@H](NC(=O)[C@H](CCC(=O)O)NC(=O)CNC(=O)CN2CCN(CC(=O)O)CCN(CC(=O)O)CCN(CC(=O)O)CC2)CCCCNC(=O)C[C@@H](C(N)=O)NC(=O)[C@H](C(C)C)NC(=O)[C@@H]2CCCN2C(=O)[C@H](CCCNC(=N)N)NC(=O)CNC(=O)[C@H](Cc2c[nH]c3ccccc23)NC(=O)[C@H](CCCNC(=N)N)NC(=O)[C@@H](Cc2ccccc2)NC(=O)[C@H](Cc2c[nH]cn2)NC(=O)[C@H](CCC(=O)O)NC1=O [gallium-67 labelled]		C57 mice with B16/F1 melanoma	intravenous, 0.037 MBq/mouse, 24 h	reference: tumour over blood	tumour to blood ratio	33.5
CC(C)(O)c1ncc([S@](N)(=O)=NC(=O)Nc2c3c(cc4c2CCC4)CCC3)s1		healthy human, urine and plasma	oral, day 14, multiple ascending dose		renal clearance	0.113 to 0.152 mL/min
Fc1cc2nc3c4cccnc4c4ncccc4c3nc2cc1F.[Cl-].[Cl-].[Ru+2].c1ccncc1.c1ccncc1.c1ccncc1.c1ccncc1		red blood cells, rabbit	20 µM, 2 h, 37 °C		hemolysis	1.05 ± 0.04%
O=S(=O)(c1ccccc1)N1CCCCC1		citrate buffer	24 h, pH 4.5		recovery	85%
CC(C)(Sc1cc[n+]([O-])cc1-c1ccc(C#N)c2ccccc12)C(=O)OC1OC(C(=O)O)C(O)C(O)C1O (stereo not shown)		human, urine	oral, 15 mg, 72 h, mild renal impairment		renal clearance	220 mL/min
CCCC(CCC)NC(=O)c1ccc(O)c(O)c1	LC-MS	human liver microsomes	10 µM of parent drug, 10 min, pH 7.4, with: NADPH	reference: parent drug at time zero	metabolite peak area	3.1%

Some of these lines once more:
SMILES	test	test system	setting	how to read	measurement	value
CCCC[C@H](NC(C)=O)C(=O)N[C@H]1CC(=O)NCCCC[C@@H](C(=O)N[C@@H](C(=O)N2CCC[C@@H]2C(N)=O)C(C)C)NC(=O)[C@H](Cc2c[nH]c3ccccc23)NC(=O)[C@H](CCCN=C(N)N)NC(=O)[C@@H](Cc2ccc3ccccc3c2)NC(=O)[C@@H]2CCCN2C1=O		healthy dogs, plasma	subcutaneous, 2.25 mg/kg per day, day 28, 30 min post-dose, median		plasma histamine	20.8 ng/mL
C=C(c1ccc(C(=O)O)c(F)c1)c1cc2c(cc1C)C(C)(C)C=CC2(C)C		rat, Sprague-Dawley, male, serum	oral, 100 mg/kg, 24 h		triglycerides	1590 ± 821 ng/dL
CCCC[C@H](NC(=O)CN1CCC(NC(=O)CN2CCN(CC(=O)O)CCN(CC(=O)O)CCN(CC(=O)O)CC2)CC1)C(=O)N[C@H]1CC(=O)NCCCC[C@@H](C(N)=O)NC(=O)[C@H](Cc2c[nH]c3ccccc23)NC(=O)[C@H](CCCNC(=N)N)NC(=O)[C@@H](Cc2ccccc2)NC(=O)[C@H](Cc2c[nH]cn2)NC1=O [gallium-68 labelled]		male C57BL/6J mice, B16-F10 tumours, tumour, bone	intravenous, 1 h, blocking study, with: 100 µg non-radioactive Ga-peptide	reference: tumour over bone	uptake ratio	2.4 ± 1
